Measurements collected from several papers.
Numbers after ± are the reported error.

With `CC(=O)C[C@H](c1ccccc1)c1c(O)c2ccccc2oc1=O` the AUC(0-inf) was 69.6 ± 18.4 µg·h/mL (human; 200 mg).
`O=C(/C=C/c1cccc(S(=O)(=O)Nc2ccccc2)c1)NO[C@@H]1O[C@H](C(=O)O)[C@@H](O)[C@H](O)[C@H]1O` has an AUC(0-inf) of 390 µg·h/mL (human severe liver dysfunction, plasma; intravenous, 400 mg/m^2, 30 min infusion, cycle 1 day -7, added: belinostat 400 mg/m^2 iv).
The AUC(0-inf) of `CC(C)NC[C@@H](C(=O)N1CCN(c2ncnc3c2[C@H](C)C[C@H]3O)CC1)c1ccc(Cl)cc1` is reported as 0.309 µg·h/mL (human, matched normal hepatic function (Child-Pugh), plasma; oral, 100 mg single, reference geometric mean, vs Severe).
With `COCCCCn1c(C(=O)N(CC(C)C)[C@@H]2CNC[C@H](C(=O)N3CCOCC3)C2)nc2ccccc21` the AUC(0-inf) was 5.89 µg·h/mL (elderly human, plasma; oral, 80 mg, day 1, multiple dosing).
With `CCN1CCN(Cc2ccc(Nc3ncc(F)c(-c4cc(F)c5nc(CO)n(C(C)C)c5c4)n3)nc2)CC1` the AUC(0-inf) was 2.3 µg·h/mL (human patients; oral, 150 mg single, geometric mean).
`CCS(=O)(=O)N1CC(CC#N)(n2cc(-c3ncnc4[nH]ccc34)cn2)C1` gave an AUC(0-inf) of 0.14 µg·h/mL (healthy Chinese human subjects, plasma; oral, 2 mg, single dose, mean).
For `CC(=O)Nc1ccc(O)cc1`, the AUC(0-inf) was 33.3 µg·h/mL (healthy human volunteers; oral, 650 mg, day 1, without favipiravir).
For `CN(Cc1cnc2nc(N)nc(N)c2n1)c1ccc(C(=O)N[C@@H](CCC(=O)O)C(=O)O)cc1`, the AUC(0-inf) was 0.6 µg·h/mL (human; oral, 7.5 mg single dose, day 8, added: isavuconazole 200 mg once daily).
With `CCc1nc(C(N)=O)c(Nc2ccc(N3CCC(N4CCN(C)CC4)CC3)c(OC)c2)nc1NC1CCOCC1` the AUC(0-inf) was 0.433 µg·h/mL (human, mild hepatic impairment, plasma; oral, 10 mg, single dose, fasted, geometric LS mean).
`CCOc1cc([C@@H](CS(C)(=O)=O)N2C(=O)c3cccc(NC(C)=O)c3C2=O)ccc1O[C@@H]1O[C@H](C(=O)O)[C@@H](O)[C@H](O)[C@H]1O` gave an AUC(0-inf) of 4.88 µg·h/mL (healthy human controls, plasma; oral, 30 mg apremilast, matched to moderate impairment).
The AUC(0-inf) of `C=C(C)[C@@H]1CC[C@]2(NCCN3CCS(=O)(=O)CC3)CC[C@]3(C)[C@H](CC[C@@H]4[C@@]5(C)CC=C(C6=CC[C@@](CF)(C(=O)O)CC6)C(C)(C)[C@@H]5CC[C@]43C)[C@@H]12` is reported as 39.1 µg·h/mL (healthy human volunteers, plasma; oral, 200 mg, tablet, high-fat state, mean).
`CCOc1cc([C@@H](CS(C)(=O)=O)N2C(=O)c3cccc(NC(C)=O)c3C2=O)ccc1OC` has an AUC(0-inf) of 0.912 µg·h/mL (healthy human, both sexes, plasma; oral, 30 mg single dose, added: rifampicin 600 mg oral once daily, dose 14).
`CC(C)c1nc(N(C)S(C)(=O)=O)nc(-c2ccc(F)cc2)c1/C=C/[C@@H](O)C[C@@H](O)CC(=O)O` has an AUC(0-inf) of 0.0495 µg·h/mL (human, plasma; oral, 20 mg, alone, geometric LS mean).
`Cc1ccc(NC(=O)c2ccc(CN3CCN(C)CC3)cc2)cc1Nc1nccc(-c2cncc(-c3oncc3C)c2)n1` gave an AUC(0-inf) of 244 µg·h/mL (older healthy human adults, plasma; oral, 325 mg single dose, fed, mean).
The AUC(0-inf) of `C=CC(=O)Nc1cc(Nc2ncc(C(=O)OC(C)C)c(-c3cn(C)c4ccccc34)n2)c(OC)cc1N(C)CCN(C)C` is reported as 0.16 µg·h/mL (human, fasted; oral, 40 mg single dose, geometric mean).
`CO[C@H]1C[C@@H]2CC[C@@H](C)[C@@](O)(O2)C(=O)C(=O)N2CCCC[C@H]2C(=O)O[C@H]([C@H](C)C[C@@H]2CC[C@@H](O)[C@H](OC)C2)CC(=O)[C@H](C)/C=C(\C)[C@@H](O)[C@@H](OC)C(=O)[C@H](C)C[C@H](C)/C=C/C=C/C=C/1C` has an AUC(0-inf) of 6.66 µg·h/mL (human, whole blood; oral, 35 mg, added: grapefruit juice).
`CN(Cc1cnc2nc(N)nc(N)c2n1)c1ccc(C(=O)N[C@@H](CCC(=O)O)C(=O)O)cc1` gave an AUC(0-inf) of 2.25 µg·h/mL (human, plasma; oral, 17.5 mg, day 1, alone).
The AUC(0-inf) of `C#C[C@]1(O)CC[C@H]2[C@@H]3CCc4cc(O)ccc4[C@H]3CC[C@@]21C` is reported as 0.0011 µg·h/mL (human female, plasma; oral, 35 µg, day 1, added: norethindrone 1 mg).
With `CCCS(=O)(=O)N[C@H]1C[C@@H](N(C)c2ncnc3[nH]ccc23)C1` the AUC(0-inf) was 7.45 µg·h/mL (humans, mild hepatic impairment; oral, 200 mg single).
`NS(=O)(=O)OC[C@@H]1C[C@@H](n2ccc3c(N[C@H]4CCc5ccccc54)ncnc32)C[C@@H]1O` has an AUC(0-inf) of 0.585 µg·h/mL (human; intravenous, 8 mg/m^2 single dose, day 8, added: itraconazole).
`CN(C)[C@@H](CCOc1cccc2ccccc12)c1ccccc1` has an AUC(0-inf) of 2.62 ± 1.25 µg·h/mL (healthy male humans, plasma; oral, 60 mg, added: udenafil 200 mg).
`CCCCC[C@H](O)CC[C@@H]1[C@H]2Cc3cccc(OCC(=O)O)c3C[C@H]2C[C@H]1O` gave an AUC(0-inf) of 0.00105 ± 0.0006 µg·h/mL (human Japanese PAH patients, plasma; inhalation, 54 µg four times daily, week 12).
The AUC(0-inf) of `C=CC(=O)N1CCC([C@@H]2CCNc3c(C(N)=O)c(-c4ccc(Oc5ccccc5)cc4)nn32)CC1` is reported as 2.67 µg·h/mL (human; oral, 480 mg single dose, mean).
For `Cc1[nH]c2ccccc2c1CCNCc1ccc(/C=C/C(=O)NO)cc1`, the AUC(0-inf) was 0.153 µg·h/mL (human, plasma; oral, 20 mg, fed, normal breakfast).
`Cc1ccc(NC(=O)c2ccc(CN3CCNCC3)cc2)cc1Nc1nccc(-c2cccnc2)n1` has an AUC(0-inf) of 6.7 µg·h/mL (human patients, plasma; oral, 400 mg of imatinib, first dose, day 1 of cycle 1).
With `CC#CC(=O)NCCCC(=O)c1nc(-c2ccc(C(=O)Nc3ccccn3)cc2)c2c(N)nccn12` the AUC(0-inf) was 0.782 µg·h/mL (human, severe hepatic impairment, plasma; oral, 50 mg acalabrutinib, single, geometric mean).
The AUC(0-inf) of `CN[C@@H]1COc2c(S(=O)(=O)NC(=O)Nc3c4c(cc5c3CCC5)CCC4)cnn2C1` is reported as 170 µg·h/mL (human; oral, 600 mg, fasted, geometric LS mean).
The AUC(0-inf) of `CC(=O)O[C@H]1C(=O)[C@@]2(C)[C@H]([C@H](OC(=O)c3ccccc3)[C@]3(O)C[C@H](OC(=O)[C@H](O)[C@@H](NC(=O)c4ccccc4)c4ccccc4)C(C)=C1C3(C)C)[C@]1(OC(C)=O)CO[C@@H]1C[C@@H]2O` is reported as 50.2 µM·h (human, plasma; intravenous, 175 mg/m², cycle 1, added: carboplatin, ritonavir).
For `CC(C)[C@@H](CS(=O)(=O)C(C)C)N1C(=O)[C@@](C)(CC(=O)O)C[C@H](c2cccc(Cl)c2)[C@H]1c1ccc(Cl)cc1`, the AUC(0-inf) was 2.44 µg·h/mL (human, plasma; oral, 60 mg, new tablet, fed, geometric LS mean).
`CCCC[C@H](NC(C)=O)C(=O)N[C@H]1CCC(=O)NC[C@@H](C(=O)N[C@@H](Cc2c[nH]c3ccccc23)C(N)=O)NC(=O)[C@H](CCCNC(=N)N)NC(=O)[C@@H](Cc2ccccc2)NC(=O)[C@H](Cc2c[nH]cn2)NC1=O` has an AUC(0-inf) of 0.172 µg·h/mL (healthy human volunteers, plasma; subcutaneous, 3.0 mg once daily, day 1).
The AUC(0-inf) of `CC(=O)O[C@H]1C(=O)[C@@]2(C)[C@H]([C@H](OC(=O)c3ccccc3)[C@]3(O)C[C@H](OC(=O)[C@H](O)[C@@H](NC(=O)c4ccccc4)c4ccccc4)C(C)=C1C3(C)C)[C@]1(OC(C)=O)CO[C@@H]1C[C@@H]2O` is reported as 2.9 ± 0.7 µM·h (human patients on no protease inhibitor, plasma; iv, 100 mg/m^2 over 3 h, cycle 1).
With `CN1CCc2nc(C(=O)N[C@@H]3C[C@@H](C(=O)N(C)C)CC[C@@H]3NC(=O)C(=O)Nc3ccc(Cl)cn3)sc2C1` the AUC(0-inf) was 1.68 µg·h/mL (human, plasma; 60 mg, fed, added: dronedarone).
The AUC(0-inf) of `Cc1c(O)ccc2c1OC[C@@H](c1ccc(O)cc1)[C@H]2c1ccc(O)cc1` is reported as 22 µg·h/mL (human patients, plasma; intravenous, 10 mg/kg, 30 min infusion, cycle 1, mean, added: topotecan).
The AUC(0-inf) of `Cc1ccc(C(=O)NC2CC2)cc1-n1ncc(C(=O)c2cccc(C#N)c2)c1N` is reported as 6.21 µg·h/mL (human, plasma; oral, 14 mg, geometric mean, added: azithromycin 500 mg daily for three days).
With `CN(CCOc1ccc(CC2SC(=O)NC2=O)cc1)c1ccccn1` (stereo not shown) the AUC(0-inf) was 1460 µg·h/mL (human, both sexes, plasma; oral, 4 mg, single dose alone, day 1, geometric mean).
For `O=c1[nH]c(=O)c(Cc2cccc(C(F)(F)F)c2)c([C@H]2CC[C@H](c3ccccc3)CC2)[nH]1`, the AUC(0-inf) was 9.68 µg·h/mL (human, fasted, plasma; oral, 1500 mg single dose, geometric mean).
`CC[C@H](C)[C@H](NC(=O)[C@H](CCC(=O)O)NC(=O)[C@H](CO)NC(=O)[C@@H](NC(=O)[C@@H](N)CO)C(C)C)C(=O)N[C@@H](CCC(N)=O)C(=O)N[C@@H](CC(C)C)C(=O)N[C@@H](CCSC)C(=O)N[C@@H](Cc1cnc[nH]1)C(=O)N[C@@H](CC(N)=O)C(=O)N[C@@H](CC(C)C)C(=O)NCC(=O)N[C@@H](CCCCN)C(=O)N[C@@H](Cc1cnc[nH]1)C(=O)N[C@@H](CC(C)C)C(=O)N[C@@H](CC(N)=O)C(=O)N[C@@H](CO)C(=O)N[C@@H](CCSC)C(=O)N[C@@H](CCC(=O)O)C(=O)N[C@@H](CCCN=C(N)N)C(=O)N[C@H](C(=O)N[C@@H](CCC(=O)O)C(=O)N[C@@H](Cc1c[nH]c2ccccc12)C(=O)N[C@@H](CC(C)C)C(=O)N[C@@H](CCCN=C(N)N)C(=O)N[C@@H](CCCCN)C(=O)N[C@@H](CCCCN)C(=O)N[C@@H](CC(C)C)C(=O)N[C@@H](CCC(N)=O)C(=O)N[C@@H](CC(=O)O)C(=O)N[C@H](C(=O)N[C@@H](Cc1cnc[nH]1)C(=O)N[C@@H](CC(N)=O)C(=O)N[C@@H](Cc1ccccc1)C(=O)O)C(C)C)C(C)C` has an AUC(0-inf) of 0.00121 ± 0.00022 µg·h/mL (immunoradiometric; human, plasma; subcutaneous, 56.5 µg once weekly, day 1).
`COc1ccc(C[C@@H](C)[C@@H](C)Cc2ccc(OC)c(OC)c2)cc1OC` has an AUC(0-inf) of 2.5 ± 1.7 µg·h/mL (human patients, fasted; oral, 3600 mg, cycle 1 day 4).
The AUC(0-inf) of `COC(=O)c1ccc2c(c1)NC(=O)/C2=C(\Nc1ccc(N(C)C(=O)CN2CCN(C)CC2)cc1)c1ccccc1` is reported as 0.674 µg·h/mL (human, hepatic impairment Child-Pugh B, plasma; oral, 100 mg single dose, fed, adjusted geometric mean).
With `CC(=O)N1CCN(c2ccc(OCC3COC(Cn4ccnc4)(c4ccc(Cl)cc4Cl)O3)cc2)CC1` (stereo not shown) the AUC(0-inf) was 10.3 µg·h/mL (healthy male human; oral, 200 mg, single dose alone).
The AUC(0-inf) of `COc1cc(Nc2c(C#N)cnc3cc(OCCCN4CCN(C)CC4)c(OC)cc23)c(Cl)cc1Cl` is reported as 0.864 µg·h/mL (human, normal hepatic function (Child-Pugh), plasma; single dose, geometric mean, total drug).
`C/C(=C\c1csc(C)n1)[C@@H]1C[C@@H]2O[C@]2(C)CCC[C@H](C)[C@H](O)[C@@H](C)C(=O)C(C)(C)[C@@H](O)CC(=O)N1` has an AUC(0-inf) of 2.89 µg·h/mL (LC-MS/MS; human patients, plasma; intravenous, 70 mg).
The AUC(0-inf) of `CN(C)Cc1c(C(=O)NCCOc2ccc(C(=O)NO)cc2)oc2ccccc12` is reported as 0.309 ± 0.0763 µg·h/mL (human, plasma; oral, 80 mg single dose).
